Published values collected from several papers.
Protocols differ between the studies behind these lines. ± marks the error that the study gave.
Target: Cytochrome P450 3A4 (CYP3A4, Homo sapiens, UniProt P08684)
Sequence of UniProt P08684 (whole entry, looked up): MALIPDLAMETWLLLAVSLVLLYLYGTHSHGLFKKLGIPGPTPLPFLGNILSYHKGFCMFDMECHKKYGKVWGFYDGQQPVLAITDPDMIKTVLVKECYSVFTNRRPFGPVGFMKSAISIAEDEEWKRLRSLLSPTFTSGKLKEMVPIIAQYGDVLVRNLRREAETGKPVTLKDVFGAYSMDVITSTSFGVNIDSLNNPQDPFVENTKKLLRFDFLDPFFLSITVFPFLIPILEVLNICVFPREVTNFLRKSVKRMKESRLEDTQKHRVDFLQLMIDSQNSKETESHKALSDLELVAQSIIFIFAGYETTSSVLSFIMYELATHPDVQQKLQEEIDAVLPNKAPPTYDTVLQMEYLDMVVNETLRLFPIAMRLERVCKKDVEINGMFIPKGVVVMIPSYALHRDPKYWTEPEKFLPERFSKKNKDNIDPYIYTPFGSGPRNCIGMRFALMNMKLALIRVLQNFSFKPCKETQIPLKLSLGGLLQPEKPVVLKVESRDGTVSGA

SMILES | assay | test system | setting | scale | quantity | value
O=C(CNC(=O)C(F)(F)F)NC(CSC(Cc1ccccc1)C(=O)NCCc1cccnc1)Cc1ccccc1 (stereo not drawn) | thermal stability |  |  |  | ΔTm | 3.1 °C
CC(C)c1nc(CN(C)C(=O)NC(C(=O)NC(Cc2ccccc2)CC(O)C(Cc2ccccc2)NC(=O)OCc2cccs2)C(C)C)cs1 (stereo not drawn) | ligand, spectral binding titration |  | saturating compound |  | high-spin heme fraction | ~44%
O=C(Nc1nc(C(F)(F)F)co1)C1c2ccccc2Oc2ccccc21 | enzyme activity, inhibitor |  | 3A4 |  | IC50 | > 30000 nM
CCc1nc(N)nc(N)c1C#CC(C)c1cc(F)cc(-c2cc(C)nc(C)c2)c1 (racemic) | enzyme activity, inhibitor, fluorescence |  |  |  | IC50 | 5400 nM
NC(COc1ccccc1C(F)(F)F)c1ccccc1 (stereo not drawn) | substrate | purified enzyme | 50 µM, pH 7.4 |  | metabolic rate | 15.4 ± 6.7 nmol/min/mg protein
Brc1ccccc1-c1nnc(CSc2nnnn2-c2ccccc2)o1 | enzyme activity, inhibitor, fluorescence | insect cell microsomes | 10 µM |  | inhibition | 91%
O=C(NCCCc1cccnc1)C(Cc1ccccc1)SCC(Cc1ccccc1)NS(=O)(=O)c1ccccc1 (stereo not drawn) | thermal stability |  |  |  | ΔTm | 5.7 °C
[2H]c1c(NS(C)(=O)=O)c([2H])c2c(C(=O)c3ccc(OCCCN(CCCC)CCCC)cc3)c(CCCC)oc2c1[2H] | metabolic stability | recombinant enzyme | 1 µM, enzyme 10 pmol/mL |  | half-life | 7.8 min
CC(C)(C)OC(=O)NC(CSC(Cc1ccccc1)C(=O)NCCCc1cccnc1)CC1c2ccccc2-c2ccccc21 (mixture of isomers) | thermal stability |  |  |  | ΔTm | 4.5 °C
CC(=O)OC1(C(C)=O)CCC2C3C=C(C)C4=CC(=O)C(O)CC4(C)C3CCC21C (stereo not drawn) | substrate | recombinant enzyme | 62 µM, 25 min |  | formation rate | 4.9 ± 0.1 pmol/min/pmol P450
CC(C)c1nc(CN(C)C(=O)NC(C(=O)NC(Cc2ccccc2)CC(O)C(N)Cc2ccccc2)C(C)C)cs1 (stereo not drawn) | ligand |  | concentration not given, together with: cytochrome P450 reductase |  | reducible fraction | 40%
O=C(N[C@@H](Cn1cncn1)c1ccc(Cl)cc1Cl)c1ccc(-c2nnc(-c3ccccc3)o2)cc1 |  |  |  |  | IC50 | 2910 ± 227 nM
Cc1cccc(-c2cccc(C)n2)n1.[Cl-].[Cl][Ru+].c1ccc(-c2cccc(-c3ccccn3)n2)nc1 | enzyme activity, inhibitor |  | dark |  | IC50 | > 50000 nM
CCc1nc(N)nc(N)c1C#C[C@H](C)c1cc(-c2ccncc2)ccc1OC | enzyme activity, inhibitor, fluorescence |  |  |  | IC50 | 50 nM
CC1CCC2(OC1)OC1CC3C4CC=C5CC(OC6OC(CO)C(OC7OC(CO)C(O)C7O)C(O)C6OC6OC(C)C(O)C(O)C6O)CCC5(C)C4CCC3(C)C1(O)C2C (stereo not drawn) | testosterone 6β-hydroxylation | pooled human liver microsomes | 100 µM, 1 h, pH 7.4 | reference: vehicle | remaining activity | 17.8%
CCc1nc(N)nc(N)c1C#CC(C)c1cc(-c2ccnc(OC)c2)ccc1OC (racemic) | enzyme activity, inhibitor, fluorescence |  |  |  | IC50 | 2600 nM
O=C(CS(=O)(=O)Cc1ccco1)C12CC3CC(CC(C3)C1)C2 | enzyme activity, inhibitor |  | 10 µM, together with: substrate BFC |  | inhibition | 86%
O=C(NCCCc1cccnc1)C(Cc1ccccc1)SCC(Cc1ccccc1)NC(=O)C(F)(F)F (stereo not drawn) | enzyme activity, inhibitor |  |  |  | IC50 | 310 nM
COc1ccc2cc(NC(=O)c3cc(-c4cccnc4)nc4ccccc34)ccc2c1 | substrate, item: metabolites M1 plus M2 | baculosomes |  |  | kcat | 0.273 s⁻¹
O=C(CNC(=O)C(F)(F)F)NC(CSC(Cc1ccccc1)C(=O)NCCCc1cccnc1)Cc1ccccc1 (stereo not drawn) | thermal stability |  |  |  | ΔTm | 6.4 °C
Cc1ccc(OCC(=O)N(Cc2cccs2)c2ccn[nH]2)cc1 | enzyme activity, inhibitor | human, liver microsomes | 10 µM, testosterone probe |  | inhibition | 35%

For quick reference, copied from above:
SMILES | assay | test system | setting | scale | quantity | value
CCc1nc(N)nc(N)c1C#C[C@H](C)c1cc(-c2ccncc2)ccc1OC | enzyme activity, inhibitor, fluorescence |  |  |  | IC50 | 50 nM
CC1CCC2(OC1)OC1CC3C4CC=C5CC(OC6OC(CO)C(OC7OC(CO)C(O)C7O)C(O)C6OC6OC(C)C(O)C(O)C6O)CCC5(C)C4CCC3(C)C1(O)C2C (stereo not drawn) | testosterone 6β-hydroxylation | pooled human liver microsomes | 100 µM, 1 h, pH 7.4 | reference: vehicle | remaining activity | 17.8%
